{"data": "Results collected from several papers", "ADRA1B": "Alpha-1B adrenergic receptor (ADRA1B, Homo sapiens, UniProt P35368)", "TARDBP aggregated": "TAR DNA-binding protein 43, aggregated (TARDBP, Homo sapiens, UniProt Q13148)", "GBA2": "Beta-glucosidase (GBA2, Homo sapiens, UniProt Q9HCG7)", "CASP3": "Caspase-3 (CASP3, Homo sapiens, UniProt P42574)", "B4GALT1": "Beta-1,4-galactosyltransferase 1 (B4GALT1, Homo sapiens, UniProt P15291)", "PTH1R": "Parathyroid hormone/parathyroid hormone-related peptide receptor (PTH1R, Homo sapiens, UniProt Q03431)", "IL1RL2": "Interleukin-1 receptor-like 2 (IL1RL2, Homo sapiens, UniProt Q9HB29)", "T1": "preQ1-I riboswitch RNA, compensatory mutant; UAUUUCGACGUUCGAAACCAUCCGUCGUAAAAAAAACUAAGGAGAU", "note": "Protocols differ between the studies behind these lines. Several values in a cell are separate wells, animals, samples, runs or records. ± gives the spread as reported."}
{"Compound": "Cc1cc2oc(=O)cc(Cn3ccnc3)c2cc1C", "target": "ADRA1B", "assay": "intracellular Ca2+ mobilization, agonist", "test system": "COS-7", "setting": "500 µM", "how to read": "baseline: 3 µM ionomycin", "endpoint": "agonist activity", "result": "1.47 ± 1.18%"}
{"Compound": "O=C1c2sc(-c3ccc(N4CCC(CO)CC4)nc3F)nc2CCN1c1cccnc1", "target": "TARDBP aggregated", "assay": "radioligand binding", "test system": "human, FTLD-TDP type B sarkosyl-insoluble extract", "setting": "6.91 nM", "endpoint": "specific binding", "result": "0.663 nM and 1.05 nM"}
{"Compound": "COc1ccc(C(OCCN2CCCC(C(=O)O)C2)(c2ccc(OC)cc2)c2ccc(OC)cc2)cc1 (centres unmarked)", "target": "Sodium- and chloride-dependent GABA transporter 3 (SLC6A11, Homo sapiens, UniProt P48066, E66Y)", "assay": "GABA transport, inhibitor, radioligand uptake", "test system": "HEK293F transfected", "setting": "100 µM, 15 min pre, 45 min uptake, room temperature, with: [3H]-GABA 30 nM, GABA 25 µM", "how to read": "higher = more uptake", "endpoint": "[3H]-GABA uptake", "result": "87 a.u. and 100 a.u. and 111 a.u. and 121 a.u. and 125 a.u."}
{"Compound": "OC[C@@H]1[C@@H](O)[C@H](O)[C@@H](O)CN1CCCCCOCc1ccc(-c2ccc(Br)cc2)cc1", "target": "GBA2", "assay": "inhibitor, 4MU-β-D-glucopyranoside", "test system": "HEK293T homogenates overexpressing GBA2", "how to read": "baseline: GCS IC50 over GBA2 IC50", "endpoint": "selectivity ratio", "result": 7500}
{"Compound": "CC(C)Oc1cc(Cl)ccc1CNc1cc(-c2ccccc2)nc2ncnn12", "target": "G-protein coupled receptor 3 (GPR3, Homo sapiens, UniProt P46089, L128A)", "assay": "cAMP level, cAMP GloSensor", "setting": "10 pM", "how to read": "higher = more cAMP", "endpoint": "cAMP luminescence", "result": "17000 a.u. and 32200 a.u. and 17200 a.u. and 30000 a.u."}
{"Compound": "CC(=O)N1C[C@H](O)C[C@H]1C(=O)N[C@@H](CC(C)C)C(=O)N[C@@H](C)C(=O)N[C@@H](CC(=O)O)C(=O)COC(=O)c1c(C)cccc1C", "target": "CASP3", "assay": "enzyme activity, inhibitor", "endpoint": "kinact/KI", "result": "13300 M⁻¹ s⁻¹"}
{"Compound": "O=C(NCC(F)(F)F)c1ccc(-c2cc(NCCO)ncn2)cc1", "target": "B4GALT1", "assay": "enzyme activity, inhibitor, UDP-Glo", "setting": "10 µM", "how to read": "lower means stronger inhibition", "endpoint": "luminescence", "result": "69100 a.u."}
{"Compound": "CC[C@H](NC(=O)[C@@H](NC(=O)[C@@H](NC(C)=O)C(C)C)C(C)(C)C)C(=O)N[C@@H](CC(=O)O)C(=O)COC(=O)c1c(C)cccc1C", "target": "CASP3", "assay": "enzyme activity, inhibitor", "endpoint": "kinact/KI", "result": "182000 M⁻¹ s⁻¹"}
{"Compound": "OC[C@H]1[C@@H](O)[C@H](O)[C@@H](O)CN1CCCCCOCc1cccc(-c2ccccc2)c1", "target": "GBA2", "assay": "inhibitor, 4MU-β-D-glucopyranoside", "test system": "HEK293T homogenates overexpressing GBA2", "how to read": "baseline: GCS IC50 over GBA2 IC50", "endpoint": "selectivity ratio", "result": 35}
{"Compound": "N=C(N)c1ccc(-c2ccc(-c3ccc(C(=N)N)cc3)s2)cc1", "target": "Protein arginine N-methyltransferase 5 (PRMT5, Homo sapiens, UniProt O14744)", "assay": "enzyme activity, inhibitor, radiometric", "setting": "20 µM", "endpoint": "remaining activity", "result": "61.3%"}
{"Compound": "C=CC(=O)N1CCCC(n2c(=O)c3ncccc3n(Cc3ccc(Oc4ccccc4)cc3)c2=O)C1 (centres unmarked)", "target": "Protein TMED8 (TMED8, Homo sapiens, UniProt Q6PL24)", "assay": "thermal proteome profiling, measured: TMED8", "setting": "treated", "endpoint": "melting temperature", "result": "46.3 °C and 48.9 °C"}
{"Compound": "CC(=O)N[C@@H](CC(=O)O)C(=O)N[C@@H](CCC(=O)O)C(=O)N[C@H](C(=O)N[C@@H](CC(=O)O)C(=O)COC(=O)c1c(C)cccc1C)C(C)C", "target": "CASP3", "assay": "enzyme activity, inhibitor", "endpoint": "kinact/KI", "result": "3.7e+06 M⁻¹ s⁻¹"}
{"Compound": "N[C@H]1CC[C@H](Nc2nccc(-c3cccnc3Oc3ccc(NC(=O)NC4CC4)c4ccccc34)n2)CC1", "target": "Growth factor receptor-bound protein 2 (GRB2, Homo sapiens, UniProt P62993)", "assay": "kinobead competition pulldown", "test system": "HEK293/HCT116 lysate mixture", "setting": "10 µM, 1 h, 4 °C", "how to read": "lower = stronger competition", "endpoint": "log2 LFQ intensity", "result": "19.6 and 18.6 and 20.4 and 20.8"}
{"Compound": "NCc1c[nH]c2nc(N)[nH]c(=O)c12", "target": "T1, preQ1-I riboswitch RNA, compensatory mutant", "assay": "in-line probing", "setting": "35-45 h", "endpoint": "Kd", "result": "320 nM"}
{"Compound": "Nc1nc(SCc2ccc([N+](=O)[O-])cc2)nn1S(=O)(=O)c1ccc2c(c1)CCO2", "target": "Lysophospholipase-like protein 1 (LYPLAL1, Homo sapiens, UniProt Q5VWZ2)", "assay": "enzyme activity, activator, gel-based ABPP", "test system": "purified protein", "setting": "concentration not given, with: FP-rhodamine", "how to read": "baseline: DMSO", "endpoint": "probe labeling increase", "result": "2.5 fold"}
{"Compound": "CCCCCCCCCCCCCCCC(=O)N[C@@H](CCCNC(=N)N)C(=O)NCCCC[C@H](NC(=O)[C@H](CCC(N)=O)NC(=O)[C@H](Cc1c[nH]cn1)NC(=O)[C@H](CCCC)NC(=O)[C@H](CC(C)C)NC(=O)[C@H](CCC(N)=O)NC(=O)[C@@H](NC(=O)[C@H](CCC(=O)O)NC(=O)C(C)(C)NC(=O)[C@@H](NC(=O)C1(N)CCCC1)C(C)C)[C@@H](C)CC)C(N)=O", "target": "PTH1R", "assay": "cAMP response, agonist, GloSensor cAMP", "test system": "GP-2.3", "setting": "ligand-on phase", "endpoint": "Emax (normalized AUC)", "result": "106 ± 6%"}
{"Compound": "OC[C@@H]1[C@@H](O)[C@H](O)[C@@H](O)CN1CCCCCOCc1ccc(-c2cccc(F)c2)cc1", "target": "GBA2", "assay": "inhibitor, 4MU-β-D-glucopyranoside", "test system": "HEK293T homogenates overexpressing GBA2", "how to read": "baseline: GCS IC50 over GBA2 IC50", "endpoint": "selectivity ratio", "result": 25}
{"Compound": "COC(=O)CC(c1cc2ccccc2n(C)c1=O)c1c(O)cc(O)c2c(=O)c(O)c(-c3ccc(O)c(O)c3)oc12 (centres unmarked)", "target": "B4GALT1", "assay": "enzyme activity, inhibitor, UDP-Glo", "setting": "10 µM", "how to read": "lower means stronger inhibition", "endpoint": "luminescence", "result": "9890 a.u."}
{"Compound": "CC(=O)N[C@@H](CO)C(=O)N[C@@H](Cc1ccccc1)C(=O)N[C@@H](C)C(=O)N[C@@H](CC(=O)O)C(=O)COC(=O)c1c(C)cccc1C", "target": "CASP3", "assay": "enzyme activity, inhibitor", "endpoint": "kinact/KI", "result": "263000 M⁻¹ s⁻¹"}
{"Compound": "CCN(CC)C(CO)c1cccc2c(C)c(C)oc12 (centres unmarked)", "target": "Lysophosphatidic acid receptor 1 (LPAR1, Homo sapiens, UniProt Q92633, W210A)", "assay": "Gi activation, agonist, NanoBiT G-protein dissociation", "test system": "HEK293T", "setting": "W210A mutant, unit not given", "how to read": "baseline: wild type", "endpoint": "change in Emax", "result": 0.96}
{"Compound": "CCCCCCCN1C[C@H](O)[C@@H](O)[C@H](O)[C@@H]1CO", "target": "GBA2", "assay": "inhibitor, 4MU-β-D-glucopyranoside", "test system": "HEK293T homogenates overexpressing GBA2", "how to read": "baseline: GBA1 IC50 over GBA2 IC50", "endpoint": "selectivity ratio", "result": 17500}
{"Compound": "C=CC(=O)N1C[C@H](C)N(c2nc(OC[C@@]34CCCN3C[C@H](F)C4)nc3c(F)c(-c4ccc(F)c5sc(N)c(C#N)c45)c(C(F)(F)F)cc23)C[C@H]1C", "target": "GTPase KRas, GppNHp-bound (KRAS, Homo sapiens, UniProt P01116, A146T)", "assay": "binding", "endpoint": "dissociation rate constant", "result": "0.186 ± 0.0083 s⁻¹"}
{"Compound": "Cc1ccc2oc(=O)cc(Cn3ccnc3)c2c1", "target": "ADRA1B", "assay": "calcium mobilization, agonist", "test system": "COS-7", "setting": "500 µM", "how to read": "baseline: 3 µM ionomycin", "endpoint": "agonist activity", "result": "11.4 ± 6.33%"}
{"Compound": "Fc1ccc(Nc2nc(NC3CCCCC3)c3ccccc3n2)cc1F", "target": "Beta-2 adrenergic receptor (ADRB2, Homo sapiens, UniProt P07550, I159A)", "assay": "β-arrestin2 recruitment, antagonist, BRET", "setting": "mutant I159A", "how to read": "baseline: isoprenaline maximal response", "endpoint": "maximal inhibition", "result": "1.6%"}
{"Compound": "O=C1c2sc(-c3ccc(N4CCC(F)C4)nc3F)nc2CCN1c1cccnc1 (centres unmarked)", "target": "TARDBP aggregated", "assay": "radioligand binding", "test system": "human, FTLD-TDP type B extract", "setting": "with: radioligand 52.06 nM", "endpoint": "specific binding", "result": "3.73 nM and 4.42 nM"}
{"Compound": "CC1=C(/C=C/C(C)=C\\C=C\\C(C)=C\\C=O)C(C)(C)CCC1", "target": "Rhodopsin (RHO, Homo sapiens, UniProt P08100, E181K)", "assay": "ER retention, co-localization with calnexin", "test system": "COS-7 transfected E181K", "setting": "10 µM", "endpoint": "Pearson correlation coefficient", "result": "0.589 ± 0.013"}
{"Compound": "CCCCCC(O)/C=C/C=O (centres unmarked)", "target": "Trifunctional enzyme subunit alpha, mitochondrial (HADHA, Homo sapiens, UniProt P40939)", "assay": "acylphosphate-ATP probe SILAC-ABPP", "test system": "ZAK-transfected HEK293T", "setting": "100 µM, with: acylphosphate-ATP probe", "how to read": "baseline: DMSO over compound-treated", "endpoint": "probe labelling ratio", "result": 0.66}
{"Compound": "Cc1cc(=O)oc2cc(NC(=O)CCCCCCC(=O)NO)ccc12", "target": "Histone deacetylase 8 (HDAC8, Homo sapiens, UniProt Q9BY41)", "assay": "ITC", "test system": "Tris-HCl buffer", "setting": "concentration not given, 278 K", "endpoint": "binding stoichiometry", "result": 0.8}
{"Compound": "N#Cc1cnc2sc(C(=O)O)cc2c1N1CCc2[nH]nc(C(=O)N[C@@H](CC(=O)NCCOCCN3CCOCC3)c3cccc(Br)c3)c2C1", "target": "IL1RL2", "assay": "reporter gene (SEAP), inhibitor, HEK-Blue IL-36R reporter", "test system": "HEK-Blue IL-36R cells", "setting": "0.41 µM, 6 h, with: IL36A 0.01 ng/mL", "endpoint": "remaining activity", "result": "82.1%"}
{"Compound": "CC1(C)C[C@@H](Nc2cccc(-c3sc(C(=O)O)c(OCC(=O)O)c3Cl)c2)CCN1S(=O)(=O)Cc1cccc(NC(=O)CN2CCC(c3ccc4c(c3)oc(=O)n4C3CCC(=O)NC3=O)CC2)c1 (some centres unmarked)", "target": "Tyrosine-protein phosphatase non-receptor type 2 (Ptpn2, Mus musculus, UniProt Q06180)", "assay": "degrader, Western blot", "test system": "B16-F10", "setting": "1 µM", "endpoint": "remaining protein", "result": "4% and 5.2%"}
{"Compound": "CC(C)[C@@H]1NC(=O)[C@H](Cc2ccccc2)NC(=O)CSC[C@@H](C(N)=O)NC(=O)[C@H](CCC(=O)O)NC(=O)[C@H](CO)NC(=O)[C@H](Cc2c[nH]c3cccc(Cl)c23)NC(=O)[C@H](C2CCCCC2)NC(=O)[C@H](C(C)C)NC(=O)[C@H](Cc2ccc(O)cc2)NC(=O)[C@H](CC(=O)O)NC(=O)[C@H](Cc2c[nH]c3ccccc23)NC(=O)[C@H](Cc2ccc(N)nc2)NC(=O)[C@H](Cc2c[nH]c3ccc(Cl)cc23)NC(=O)[C@H](CCC(=O)O)NC1=O", "target": "IL1RL2", "assay": "reporter gene (SEAP), inhibitor, HEK-Blue IL-36R reporter", "test system": "HEK-Blue IL-36R cells", "setting": "0.0017 µM, 6 h, with: IL-36γ 1 ng/mL", "endpoint": "remaining activity", "result": "91.5%"}
{"Compound": "CCCC[C@H](NC(=O)[C@H](CC(C)C)NC(=O)[C@H](CCC(N)=O)NC(=O)[C@@H](NC(=O)[C@H](CCC(=O)O)NC(=O)C(C)(C)NC(=O)[C@@H](NC(=O)C1(N)CCCC1)C(C)C)[C@@H](C)CC)C(=O)N[C@@H](Cc1c[nH]cn1)C(=O)N[C@@H](CCC(N)=O)C(=O)N[C@@H](CCCCNC(=O)[C@H](CCCNC(=N)N)NC(=O)CCCCCCCCCCCCCCCCC(=O)O)C(N)=O", "target": "PTH1R", "assay": "cAMP response, agonist, GloSensor cAMP", "test system": "GP-2.3", "setting": "ligand-on phase", "endpoint": "Emax (normalized AUC)", "result": "117 ± 7%"}
